Results of several laboratories.
Several values in a cell are separate wells, animals, samples, runs or records. ± marks the error that the study gave.
Genome polyprotein NS3 helicase domain: Genome polyprotein, NS3 helicase domain (Hepatitis C virus genotype 1b, UniProt Q9WMX2)
DRD3: D(3) dopamine receptor (DRD3, Homo sapiens, UniProt P35462)

Cc1nn(-c2nc3c(F)cc(F)cc3s2)c(O)c1C(c1ccc(C(F)(F)F)cc1)c1c(C)nn(-c2nc3c(F)cc(F)cc3s2)c1O  inhibition (CGAS (Homo sapiens, UniProt Q8N884); enzyme activity, inhibitor, PPiase-coupled; 12.5 µM, 1.5 h): 48.6%
CC(C)c1noc2ncc(C(=O)c3ccccc3O)cc12  inhibition (Asic1 (Rattus norvegicus, UniProt P55926); ion current, inhibitor, whole-cell patch clamp; 10 µM): 2.5% and 7.7% and 11% and 9.1%
CCN(CC)C(=O)c1ccc(O)c(OC)c1  inhibition (Genome polyprotein NS3 helicase domain; DNA binding, inhibitor; hepatitis C virus; 100 µM, together with: Cy5-dT15 DNA): 0%
CCCN1C[C@H](CSC)C[C@@H]2c3cccc4[nH]cc(c34)C[C@H]21  inhibition (Glutamate receptor 2 (Homo sapiens, UniProt P42262); ion current, negative allosteric modulator, SyncroPatch patch clamp; HEK293; 10 µM): 4%
CNCc1ccc(-c2cc(-c3nc(-c4ccc(S(=O)(=O)C(C)C)cc4)cnc3N)on2)cc1  inhibition (Protein kinase C beta type, isoform beta-II (PRKCB, Homo sapiens, UniProt P05771); enzyme activity; 2 µM, together with: ATP at Km): 7%
COc1cc(-c2cc(-c3ccc(N4CCNCC4)cc3)cnc2N)cc(OC)c1OC  inhibition (Protein kinase C beta type, isoform beta-I (PRKCB, Homo sapiens, UniProt P05771); kinome profiling; 0.1 µM): 0%
O=c1c2ccccc2nc2n1CCc1c-2[nH]c2ccccc12  inhibition (Genome polyprotein NS3 helicase domain; DNA binding, inhibitor; hepatitis C virus; 100 µM, together with: Cy5-dT15 DNA): 2%
Cc1ccnc(C)c1OC[C@H]1CN(CCN2CCc3ccccc32)CCO1  inhibition (DRD3; radioligand binding; concentration not given, together with: [3H]N-methylspiperone): 4.7%
COc1cc(C(=O)NS(=O)(=O)c2ccccc2C)ccc1Cc1cn(C)c2ccc(NC(=O)OC3CCCC3)cc12  inhibition (LRRC8A/LRRC8C (Homo sapiens, UniProt Q8IWT6+Q8TDW0, Y124F/Y126F); ion current, whole-cell patch clamp; HCT LRRC8-/- cells; 100 µM, +100 mV, Y124F/Y126F heteromers): 81.8% and 79.2% and 87.2% and 90.1%
COc1cc2nccc(Oc3ccc(NC(=O)c4cc5c(n(-c6ccccc6)c4=O)CCCC5=O)nc3)c2cc1OC  inhibition (MERTK (Homo sapiens, UniProt Q12866); inhibitor; human patients; 6 mg once daily, day 29, combination with venetoclax): 79 to 81%
CC[C@@H]1[C@H](F)C(=O)N[C@@H]1COc1nccc2cc(C(N)=O)c(OC)cc12  inhibition (EIF2AK4 (Homo sapiens, UniProt Q9P2K8); ATP-site probe binding, ActivX profiling, refers to: GCN2; THP-1 cell lysate; 0.2 mM, Lys2 site): 1.7%
C[N+]1(C)[C@@H]2C[C@@H](OC(=O)[C@H](CO)c3ccccc3)C[C@H]1[C@@H]1O[C@@H]12  inhibition (Genome polyprotein NS3 helicase domain; DNA binding, inhibitor; hepatitis C virus; 100 µM, together with: Cy5-dT15 DNA): 0%
CCCCCCCCCCCCCCCC1NCCc2cc(O)c(O)cc21 (stereo not shown)  inhibition (tyrosinase; enzyme activity, inhibitor; 100 µM, together with: levodopa): 0.37 ± 2.42%
O=c1c(O)c(-c2ccc(O)c(O)c2)oc2cc(O)cc(O)c12  inhibition (Genome polyprotein NS3 helicase domain; DNA binding, inhibitor; hepatitis C virus; 100 µM, together with: Cy5-dT15 DNA): 2%
N[C@@H](Cc1cnc[nH]1)C(=O)O  inhibition (Cationic amino acid transporter 8 (NPT1, Plasmodium vivax, UniProt A5K9W3); 100 µM): 57.5%
CCOC(=O)N1CCC(=C2c3ccc(Cl)cc3CCc3cccnc32)CC1  inhibition (Genome polyprotein NS3 helicase domain; enzyme activity; hepatitis C virus; 100 µM): 0%
CC(C)NCC(O)COc1cccc2ccccc12 (stereo not shown)  inhibition (Voltage-gated potassium channel, KQT; KCNQ2(Kv7.2)/KCNQ3(Kv7.3) (KCNQ3/KCNQ2, Homo sapiens, UniProt O43525+O43526); ion current, antagonist, SyncroPatch patch clamp; HEK293; 30 µM): 38%
COc1cc2c(cc1OC)C(=O)N(CCCCN1CCN(c3ccccc3OC)CC1)C2  inhibition (DRD3; radioligand binding; concentration not given, together with: [3H]N-methylspiperone): 100%
C[N+](C)(C)CCOC(=O)CCC(=O)OCC[N+](C)(C)C  inhibition (Genome polyprotein NS3 helicase domain; DNA binding, inhibitor; hepatitis C virus; 100 µM, together with: Cy5-dT15 DNA): 2%

Excerpt of the above:
CNCc1ccc(-c2cc(-c3nc(-c4ccc(S(=O)(=O)C(C)C)cc4)cnc3N)on2)cc1  inhibition (Protein kinase C beta type, isoform beta-II (PRKCB, Homo sapiens, UniProt P05771); enzyme activity; 2 µM, together with: ATP at Km): 7%
